Measurements pooled from the literature.
Lines come from different studies, so protocols differ. ± marks the error that the study gave.

| SMILES | assay | system | setting | scale | endpoint | value |
| --- | --- | --- | --- | --- | --- | --- |
| CCC(=O)N(CCC(c1ccc2c(c1)OCO2)c1ccccc1OC)Cc1ccccc1 (stereo not shown) |  | female athymic nude mouse, blood | i.p., 60 mg/kg twice daily, 14 days, group mean |  | BUN | 24.5 mg/dL |
| Cc1ccc(N(C)C(=O)/C=C/c2ccco2)cc1 | hot plate test | mice | oral, 30 mg/kg single, 60 min |  | licking latency | 15.5 ± 0.7 s |
| CCc1cc(C(=O)NC)c2nccc(N3CCc4c(cc(Cn5ccnc5)cc4-c4cn(C)nc4C(F)(F)F)C3=O)c2c1 |  | Sprague Dawley rat | oral, 50 mg/kg once daily, 7 days |  | liver weight | 12.4 ± 0.85 g |
| Cc1ccc(C)c(OCCCC(C)(C)C(=O)O)c1 |  | human, plasma | oral, dose not given, day 12 predose, geometric mean |  | trough plasma concentration | 1780 ng/mL |
| Cc1cc(NC2CCN(C(=O)OC3CCN(C(=O)/C=C/CN(C)C)C3)CC2)n2ncc(C(C)C)c2n1 (stereo not shown) | CTCAE v4.0, item: Anemia | patients with advanced solid tumours | oral, dose not given, TIW, grade 3 or higher |  | patients with TEAE | 9% |
| COc1ncc(-c2nc3c(n2C(C)C)[C@H](c2ccc(Cl)cc2)N(c2cc(Cl)cn(C)c2=O)C3=O)c(OC)n1 |  | human patients, plasma | oral, 4 mg, cycle 1 day 1, low-dose |  | geometric mean Cmax | 17.6 ng/mL |
| FC(F)(F)c1ccc(CNc2ccc(Cc3c[nH]c4ncc(Cl)cc34)cn2)cn1 | item: dry skin | human, advanced solid tumours, all patients | oral, 1000 mg/day, any grade |  | treatment-related adverse events | 6% |
| O=C(N[C@H](Cc1c[nH]c2ccccc12)C(=O)Nc1ccncc1)c1ccc(N2CCN(c3ccc(F)c(F)c3)CC2)cc1F |  | Swiss Webster mouse, female, brain | oral, 50 mg/kg, 2 h, 20% HPβCD vehicle |  | concentration | 17 µM |
| Cl.[2H]C([2H])([2H])CC(=O)c1cnc(NC(=O)C2CC2)cc1Nc1cccc(-c2ncn(C([2H])([2H])[2H])n2)c1OC | geometric mean | human | oral, 40 mg twice daily, day 1, fed, liquid, multiple dose |  | Cmax | 275 ng/mL |
| C[C@H](CCC(=O)NCC(=O)O)[C@H]1CC[C@H]2[C@@H]3[C@H](O)C[C@@H]4C[C@H](O[C@@H]5O[C@H](C(=O)O)[C@@H](O)[C@H](O)[C@H]5O)CC[C@]4(C)[C@H]3CC[C@]12C |  | human, plasma | endogenous control diurnal | relative to: daily mean concentration | relative peak deviation | 129 ± 21% |
| C[Si]1(C)O[Si](C)(C)O[Si](C)(C)O[Si](C)(C)O[Si](C)(C)O1 |  |  |  |  | slope B, log KOA vs 1/T | 2470 |
| C[C@H]1CN(C(=O)CC#N)[C@]12CCN(c1ncnc3[nH]ccc13)C2 |  | healthy human | oral, 6 mg single |  | subjects with Headache | 12.5% |
| Cc1c(-c2ccc(N3CCc4cccc(C(=O)Nc5nc6ccccc6s5)c4C3)nc2C(=O)O)cnn1CC12CC3(C)CC(C)(C1)CC(OCCNCC[C@H](O)CO)(C3)C2 |  | beagle dog, anaesthetised | intravenous infusion, 0.1 mg/kg/min, 60 min | relative to: baseline | mean arterial pressure change | -1 mmHg |
| N#Cc1ccc2c(c1)[C@H]1CCCN(C(=O)c3ccc4[nH]cnc4c3)[C@H]1C2 |  | human | 360 mg, day 15 |  | maximum ACTH level | 10.3 pmol/L |
| N=C(N)NCCNC(=O)C1(Nc2ccccc2)CCN(Cc2ccccc2)CC1 |  | female Sprague-Dawley rats, plasma | oral, 50 mg/kg |  | half-life | 0.2 ± 0.1 h |
| CCN1/C(=C/C(C)=O)Sc2ccc(F)cc21 |  | cynomolgus monkey | oral, 10 mg/kg, 4 h post-dose |  | QTc interval (Bazett) | 328 ± 9 ms |
| O=C(CCCCCCC(=O)Nc1ccc(CC[18F])cc1)NO |  | athymic nu/nu male mice, LNCaP xenograft, bone | intravenous, 2 h |  | tissue uptake | 13.4 ± 0.6 %ID/g |
| O=C(Nc1cnccc1Cl)N1CCN(Cc2ccc3c(c2)OC(F)(F)O3)CC1 |  | elderly men and women, plasma | oral, 100 mg once daily, day 10, normalized to 10 mg |  | dose-normalized Cmax | 105 ng/mL |
| CNCc1ccc(-c2[nH]c3cc(F)cc4c3c2CCNC4=O)cc1 | item: Dyspnea | human patients | oral, dose not given, all grades, all doses |  | patients with adverse event | 17.9% |
| COc1ccccc1OCCNCC(O)COc1cccc2[nH]c3ccccc3c12 (stereo not shown) |  | buffer without mucin | supersaturation ratio 5 |  | precipitation induction time | ≤ 10 min |

| SMILES | assay | system | setting | scale | endpoint | value |
| --- | --- | --- | --- | --- | --- | --- |
| O=C(O)CCCOc1ccc([18F])cc1-c1cc(-c2ccccc2C(F)(F)F)n(-c2ccccc2)n1 | gamma counting | male ddY mice, spleen | intravenous, 2.1 MBq, 60 min |  | radioactivity uptake | 0.11 ± 0.05 SUV |
| CC(C)(C(=O)N1CCOc2c(C#N)cncc2C1)C(F)F | item: Dizziness | human | oral, 10 mg once daily, 14 days, multiple ascending dose |  | subjects with adverse event | 0% |
| Cc1ccc(Sc2ccccc2N2CCNCC2)c(C)c1 |  | healthy adult men | oral, 40 mg single dose, treatment-emergent adverse events |  | eczema incidence | 16.7% |
| CC(C)c1nc(N(C)S(C)(=O)=O)nc(-c2ccc(F)cc2)c1/C=C/[C@@H](O)C[C@@H](O)CC(=O)O |  | rat Wistar albino | dose not given, 14 days |  | liver weight | 7.6 g |
| O=C(O)CCC(=O)O.[2H]C([2H])([2H])Oc1cc(C)c2[nH]ccc2c1CN1CC[C@@H](C2CC2)C[C@H]1c1ccc(C(=O)O)cc1 |  | healthy Chinese subjects | 200 mg, single ascending dose |  | TEAE decreased fibrinogen | 8.3% |
| C=CC(=O)Nc1cc(Nc2nccc(-c3cn(C4CC4)c4ccccc34)n2)c(OC)cc1N(C)CCN(C)C |  | BALB/c nude mouse, LU0387 xenograft, blood | oral, 40 mg/kg |  | NRBC# | 0.022 ± 0.0049 g/L |
| CNC(=O)c1cc(Oc2ccc(NC(=O)Nc3cc(C(C)(C)C)nn3-c3ccc4ncccc4c3)c(F)c2)ccn1 | item: worst grade 1 | human | oral, dose not given, cycles 1 and 2, High AUC(0-4 h) subgroup |  | patients with visual abnormality AE | 11% |
| Cc1cc(-c2nccc3c2ccn3CC(=O)Nc2ccc(-c3cnccn3)cn2)ccn1 |  | human | 20 mg once daily, multiple ascending dose |  | subjects with Erythema adverse event | 0% |
| NC1(C(=O)N[C@@H](CCO)c2ccc(Cl)cc2)CCN(c2nc[nH]c3nccc2-3)CC1 |  | human mCRPC patients | oral, twice daily, 4/7 days, grade 3/4, treatment-related, added: enzalutamide 160 mg daily |  | blood creatinine increased incidence | 0% |
| O=C1NCCc2nc(OCc3cccc(F)c3)ccc21 | item: Tremors | Sprague-Dawley rat male | oral, 100 mg/kg, 30 min | direction not given | Irwin test score | 0 |
| O=C(c1cccnc1-c1ccncc1)N1CCC(O)(Cc2ccccc2)CC1 |  | healthy Japanese adults, plasma | oral, 200 mg single dose |  | terminal half-life | 5.89 h |
| CC(C)Oc1c(NC(=O)c2ccc(NC(=O)[C@H](CC(N)=O)NC(=O)c3cc(F)c(/N=N/c4c(F)cccc4F)c(F)c3)cc2)ccc(C(=O)N/N=C/c2ccc(C(=O)O)s2)c1O | absorbance | DMSO | 40 °C, PSS to ground state relaxation |  | thermal half-life | 3.8 h |
| Cn1cc(Nc2nccc(-c3ccc4c(c3)CN(C3COC3)CC[C@H]4NC(=O)c3cn(C(C)(C)C)nn3)n2)cn1 |  | human, whole blood | 50 mg twice daily, day 14 | relative to: pre-dose baseline | transitional B cell count change | 26.5% |
| O=C(Nc1nc2cccc(-c3ccc(CN4CCS(=O)(=O)CC4)cc3)n2n1)C1CC1 |  | rheumatoid arthritis patients | oral, 100 mg twice daily, 4 weeks, TEAE regardless of relatedness |  | patients with Erythema | 0% |
| CO[C@@H]1[C@H](OC(=O)N2CC(CCN3CCOCC3)C2)CC[C@]2(CO2)[C@H]1[C@@]1(C)O[C@@H]1CC=C(C)C |  | human | dose not given, day 28, multiple ascending dose | relative to: baseline | D-dimer change | -0.04 ± 0.06 mg/dL |
| CC(C)c1nc(N(C)S(C)(=O)=O)nc(-c2ccc(F)cc2)c1/C=C/[C@@H](O)C[C@@H](O)CC(=O)O |  | healthy human volunteers, plasma | oral, dose not given, BCRP probe substrate, added: momelotinib | relative to: compound alone | AUC0-last ratio | 280% |
| NC(CO)(CO)CCc1ccc(Sc2cccc(OCc3ccccc3)c2)cc1Cl |  | human, supine | oral, 3 mg, 0 to 312 h, added: cyclosporin 100 mg |  | pulse rate AUEC, median | 18700 h×bpm |
| CC(C)(C)c1ccc(O)c(CN(Cc2cc(C(C)(C)C)ccc2O)C2CCC(NC(N)=O)CC2)c1 (stereo not shown) |  | C57BL/6 mice, male, plasma | intraperitoneal, 10 mg/kg, single dose |  | dose-normalised Cmax | 224 ng/mL per mg/kg |
| NS(=O)(=O)c1cc(C(=O)O)c(NCc2ccco2)cc1Cl | item: vessel puncture site pain | healthy men | oral, 8 days, treatment-emergent, crossover trial |  | subjects with adverse event | 0% |
| CNC(=O)c1ccc(-c2cnc3ncc(Cc4ccc5ncccc5c4)n3n2)cc1F | item: Anemia | cancer patients | oral, 600 mg twice daily, all expansion cohorts, grade 3-4 |  | patients with adverse event | 5% |

Some of these lines once more:
| SMILES | assay | system | setting | scale | endpoint | value |
| --- | --- | --- | --- | --- | --- | --- |
| NC1(C(=O)N[C@@H](CCO)c2ccc(Cl)cc2)CCN(c2nc[nH]c3nccc2-3)CC1 |  | human mCRPC patients | oral, twice daily, 4/7 days, grade 3/4, treatment-related, added: enzalutamide 160 mg daily |  | blood creatinine increased incidence | 0% |
| CC(C)c1nc(N(C)S(C)(=O)=O)nc(-c2ccc(F)cc2)c1/C=C/[C@@H](O)C[C@@H](O)CC(=O)O |  | rat Wistar albino | dose not given, 14 days |  | liver weight | 7.6 g |
